Measured values gathered from unrelated publications.
Compare with care: the assays were run in different laboratories.

Under “singlet oxygen quantum yield”, `COc1cc(OC)cc(C2=C3C(C)=C(I)C(/C=C/c4c[nH]c5ccc([N+](=O)[O-])cc45)=[N+]3[B-](F)(F)n3c(/C=C/c4c[nH]c5ccc([N+](=O)[O-])cc45)c(I)c(C)c32)c1` is recorded as 0.34 (DPBF absorbance decrease; DMSO; baseline: methylene blue).
`CCN(CC)C(=S)c1ccc(-c2c3ccc(=[N+](C)C)cc-3sc3cc4c(cc23)C(C)(C)CCN4C)s1`: “singlet oxygen quantum yield” less than 0.05 (1O2 luminescence; air-saturated methanol).
`CC(C)(C)c1cc(-c2ccc3cccnc3n2)nc(-c2ccc3cccnc3n2)c1.[Cl-].[Cl-].[Ru+2].c1ccc2cc3nc4c5cccnc5c5ncccc5c4nc3cc2c1` — result for “singlet oxygen quantum yield”: 0.04 (1O2 phosphorescence; acetonitrile; excitation 630 nm; baseline: Ru(bpy)3(PF6)2).
`COc1cc(OC)cc(C2=C3C(C)=C(I)C(C)=[N+]3[B-](F)(F)n3c(/C=C/c4cccs4)c(I)c(C)c32)c1`: “singlet oxygen quantum yield” 0.63 (DPBF absorbance decrease; DMSO; baseline: methylene blue).
`CCCCCCCCC1(CCCCCCCC)c2cc(-c3cc4[n+]5c(c3)-c3cccc[n+]3[Ir-3]536([n+]5ccccc5-c5cc(-c7ccccc7)cc([n+]53)-c3cccc[n+]36)[n+]3ccccc3-4)ccc2-c2ccc(-c3cc4[n+]5c(c3)-c3cccc[n+]3[Ir-3]536([n+]5ccccc5-c5cc(-c7ccccc7)cc([n+]53)-c3cccc[n+]36)[n+]3ccccc3-4)cc21.F[P-](F)(F)(F)(F)F.F[P-](F)(F)(F)(F)F.F[P-](F)(F)(F)(F)F.F[P-](F)(F)(F)(F)F.F[P-](F)(F)(F)(F)F.F[P-](F)(F)(F)(F)F` — result for “singlet oxygen quantum yield”: 22 to 28% (acetonitrile).
Under “singlet oxygen quantum yield”, `COc1cc(OC)cc(C2=C3C(C)=C(I)C(C)=[N+]3[B-](F)(F)n3c(/C=C/c4c[nH]c5ccccc45)c(I)c(C)c32)c1` is recorded as 0.72 (DPBF absorbance decrease; DMSO; baseline: methylene blue).
Under “singlet oxygen quantum yield”, `Cc1ccncc1.[Cl-].[Cl-].[Ru+2].c1cc(-c2ccc3cccnc3n2)nc(-c2ccc3cccnc3n2)c1.c1ccc2cc3nc4c5cccnc5c5ncccc5c4nc3cc2c1` is recorded as 0.77 (1O2 phosphorescence; acetonitrile; excitation 630 nm; baseline: Ru(bpy)3(PF6)2).
`CCCCCCCCC1(CCCCCCCC)c2cc(-c3cc4[n+]5c(c3)-c3cccc[n+]3[Ir-3]536([c]5ccccc5-c5cc(-c7ccccc7)cc([n+]53)-c3cccc[c]36)[n+]3ccccc3-4)ccc2-c2ccc(-c3cc4[n+]5c(c3)-c3cccc[n+]3[Ir-3]536([c]5ccccc5-c5cc(-c7ccccc7)cc([n+]53)-c3cccc[c]36)[n+]3ccccc3-4)cc21.F[P-](F)(F)(F)(F)F.F[P-](F)(F)(F)(F)F`: “singlet oxygen quantum yield” 0.22 (acetonitrile; 5 µM; baseline: [Ru(bpy)3](PF6)2).
`CCN(CC)C(=O)c1ccc(-c2c3ccc(=[N+](C)C)cc-3sc3cc4c(cc23)C(C)(C)CCN4C)s1`: “singlet oxygen quantum yield” less than 0.05 (1O2 luminescence; air-saturated methanol).
For `COc1cc(OC)cc(C2=C3C(C)=C(I)C(C)=[N+]3[B-](F)(F)n3c(/C=C/c4c[nH]c5ccc([N+](=O)[O-])cc45)c(I)c(C)c32)c1`, “singlet oxygen quantum yield” read 0.55 (DPBF absorbance decrease; DMSO; baseline: methylene blue).
`CCCCCCCCC1(CCCCCCCC)c2cc(C#Cc3cc4[n+]5c(c3)-c3cccc[n+]3[Ir-3]536([n+]5ccccc5-4)[n+]4ccccc4-c4cc(-c5ccccc5)cc([n+]43)-c3cccc[n+]36)ccc2-c2ccc(C#Cc3cc4[n+]5c(c3)-c3cccc[n+]3[Ir-3]536([n+]5ccccc5-4)[n+]4ccccc4-c4cc(-c5ccccc5)cc([n+]43)-c3cccc[n+]36)cc21.F[P-](F)(F)(F)(F)F.F[P-](F)(F)(F)(F)F.F[P-](F)(F)(F)(F)F.F[P-](F)(F)(F)(F)F.F[P-](F)(F)(F)(F)F.F[P-](F)(F)(F)(F)F` — result for “singlet oxygen quantum yield”: 22 to 28% (acetonitrile).
For `CC(C)(C)c1cc(-c2ccc3cc4ccccc4nc3n2)nc(-c2ccc3cc4ccccc4nc3n2)c1.Cc1ccncc1.[Cl-].[Cl-].[Ru+2].c1ccc2cc3nc4c5cccnc5c5ncccc5c4nc3cc2c1`, “singlet oxygen quantum yield” read 0.14 (1O2 phosphorescence; acetonitrile; excitation maximum 455 nm; baseline: Ru(bpy)3(PF6)2).

A few entries again:
`COc1cc(OC)cc(C2=C3C(C)=C(I)C(C)=[N+]3[B-](F)(F)n3c(/C=C/c4cccs4)c(I)c(C)c32)c1`: “singlet oxygen quantum yield” 0.63 (DPBF absorbance decrease; DMSO; baseline: methylene blue).
